{"data": "Measured values of several laboratories", "sample": "urine"}
{"SMILES": "CC(=O)N(C)[C@H]1CCN(C(=O)c2cnc3c(c2)C[C@](C)(c2ccc(F)cc2)N3)C1", "system": "male humans", "setting": "oral, 60 mg once daily, multiple dosing, geometric mean", "quantity": "amount excreted in urine (0-48 h, steady state)", "result": "86900 nmol"}
{"SMILES": "Oc1ccc([C@@H](O)c2cc(-c3ncnc4cc(N5CCOCC5)ccc34)c(F)cc2Cl)nn1", "system": "healthy human volunteers", "setting": "0-24 h, fasted oral solution, geometric mean", "how to read": "reference: dose", "quantity": "amount excreted in urine", "result": "6.32%"}
{"SMILES": "CN[C@@H]1COc2c(S(=O)(=O)NC(=O)Nc3c4c(cc5c3CCC5)CCC4)cnn2C1", "system": "human", "setting": "oral, 900 mg twice daily, 0-12 h, day 7", "quantity": "amount excreted in urine", "result": "111 mg"}
{"SMILES": "NCCONC(=O)[C@@H]1CC[C@@H]2CN1C(=O)N2OS(=O)(=O)O", "system": "human male", "setting": "intravenous infusion, 1 g single dose", "quantity": "amount excreted in urine (0-24 h)", "result": "849 mg"}
{"SMILES": "C=CC(=O)Nc1cc(Nc2ncc(C(=O)OC(C)C)c(-c3cn(C)c4ccccc34)n2)c(OC)cc1N(C)CCN(C)C", "system": "healthy human", "setting": "oral, 20 mg single dose, 0-48 h, arithmetic mean", "quantity": "amount excreted in urine", "result": "0.19 mg"}
{"SMILES": "CC(C)(Sc1ccncc1-c1ccc(C#N)c2ccccc12)C(=O)O", "system": "human", "setting": "oral, 10 mg, with: febuxostat 20 mg", "quantity": "amount excreted in urine (0-24 h)", "result": "0.166 mg"}
{"SMILES": "CC(C)n1c(C2CCNCC2)nc2c([N+](=O)[O-])c(Br)c(Br)cc21", "system": "human", "setting": "oral, 75 mg, 0-24 h, median, single dose", "quantity": "amount excreted in urine", "result": "0.46 mg"}
{"SMILES": "Cn1cc(-c2cn3nccc3c(-c3cnn([C@]4(CC#N)C[C@@H](C#N)C4)c3)n2)cn1", "system": "human", "setting": "oral, 1200 mg once daily, day 10, dosing interval geometric mean", "quantity": "amount excreted unchanged in urine", "result": "14.7 mg"}
{"note": "A few entries again:"}
{"SMILES": "Cn1cc(-c2cn3nccc3c(-c3cnn([C@]4(CC#N)C[C@@H](C#N)C4)c3)n2)cn1", "system": "human", "setting": "oral, 1200 mg once daily, day 10, dosing interval geometric mean", "quantity": "amount excreted unchanged in urine", "result": "14.7 mg"}
